Experimental data of several laboratories.
Compare with care: the assays were run in different laboratories.
Target: Carbonic anhydrase 12 (CA12, Homo sapiens, UniProt O43570)
Sequence of UniProt O43570 (whole entry, looked up): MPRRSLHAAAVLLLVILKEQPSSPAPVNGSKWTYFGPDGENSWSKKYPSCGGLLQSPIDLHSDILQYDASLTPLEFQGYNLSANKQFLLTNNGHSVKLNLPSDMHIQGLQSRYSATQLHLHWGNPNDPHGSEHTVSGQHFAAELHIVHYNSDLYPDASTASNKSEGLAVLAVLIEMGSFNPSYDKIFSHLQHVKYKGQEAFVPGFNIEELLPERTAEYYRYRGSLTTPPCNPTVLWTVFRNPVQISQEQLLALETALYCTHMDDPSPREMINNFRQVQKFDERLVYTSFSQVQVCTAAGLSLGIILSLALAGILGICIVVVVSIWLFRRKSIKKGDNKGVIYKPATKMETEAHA

SMILES = COCCOc1cc2ncnc(Nc3cccc(-c4cn(CCc5ccc(S(N)(=O)=O)cc5)nn4)c3)c2cc1OCCOC; read-out = enzyme activity; action = inhibitor; method = stopped-flow; quantity = Ki; value = 353 nM
SMILES = NS(=O)(=O)c1ccc(N2N=C(c3ccccc3O)CC2c2ccc(Br)cc2)cc1 (stereo not drawn); read-out = enzyme activity; action = inhibitor; method = absorbance; quantity = IC50; value = 8360 nM
SMILES = Cc1ccc(S(=O)(=O)NC(C)c2ccccc2)cc1 (stereo not drawn); read-out = enzyme activity; action = inhibitor; quantity = IC50; value = 1960 nM
SMILES = COc1ccc(O)c(C2=NN(c3ccc(S(N)(=O)=O)cc3)C(c3ccc(Br)cc3)C2)c1 (stereo not drawn); read-out = enzyme activity; action = inhibitor; method = absorbance; quantity = IC50; value = 4260 nM
SMILES = NS(=O)(=O)c1ccc(Nc2nc3nccc(-c4ccc5ccccc5c4)n3n2)cc1; read-out = enzyme activity; action = inhibitor; method = stopped-flow; quantity = Ki; value = 62.5 nM
SMILES = COc1cccc(/C(C)=N/NC(=O)CSc2nc3ccccc3c(=O)n2CCc2ccc(S(N)(=O)=O)cc2)c1; read-out = enzyme activity; action = inhibitor; method = stopped-flow; quantity = Ki; value = 80.1 nM
SMILES = COCCOc1cc2ncnc(Nc3cccc(-c4cn(-c5ccccc5S(N)(=O)=O)nn4)c3)c2cc1OCCOC; read-out = enzyme activity; action = inhibitor; method = stopped-flow; quantity = Ki; value = 28 nM
SMILES = COc1cc(-c2ccnc3nc(Nc4ccc(S(N)(=O)=O)cc4)nn23)cc(OC)c1OC; read-out = enzyme activity; action = inhibitor; method = stopped-flow; quantity = Ki; value = 31.9 nM
SMILES = CC(=O)Nc1ccc(S(=O)(=O)N2CCN(C(=O)c3cc4ccccc4oc3=O)CC2)cc1; quantity = Ki; value = 42300 nM
SMILES = COC(=O)CCCNC(=O)c1cc(S(N)(=O)=O)c(Cl)cc1NC1CCCCC1; method = thermal shift; pH = pH 7.0; temperature = 37 °C; quantity = Kd; value = 20 nM
SMILES = Cc1cc(C)cc(C(=O)Nc2cccc(S(N)(=O)=O)c2)c1; read-out = enzyme activity; action = inhibitor; method = absorbance; quantity = IC50; value = 9170 nM
SMILES = NS(=O)(=O)c1ccc(CCn2c(SCC(=O)N/N=C/c3ccccc3O)nc3ccccc3c2=O)cc1; read-out = enzyme activity; action = inhibitor; method = stopped-flow; quantity = Ki; value = 10.2 nM
SMILES = NS(=O)(=O)c1cc(C(=O)NCCCC(=O)O)c(NC2CCCCC2)cc1Cl; method = thermal shift; pH = pH 7.0; temperature = 37 °C; quantity = Kd; value = 19 nM
SMILES = COc1ccccc1/C=N/NC(=O)CSc1nc2ccccc2c(=O)n1CCc1ccc(S(N)(=O)=O)cc1; read-out = enzyme activity; action = inhibitor; method = stopped-flow; quantity = Ki; value = 64.8 nM
SMILES = Cc1ccc(S(=O)(=O)Nc2ccccc2Sc2ccccc2)cc1; read-out = enzyme activity; action = inhibitor; quantity = IC50; value = 1360 nM

For quick reference, copied from above:
SMILES = COc1ccccc1/C=N/NC(=O)CSc1nc2ccccc2c(=O)n1CCc1ccc(S(N)(=O)=O)cc1; read-out = enzyme activity; action = inhibitor; method = stopped-flow; quantity = Ki; value = 64.8 nM
SMILES = Cc1ccc(S(=O)(=O)Nc2ccccc2Sc2ccccc2)cc1; read-out = enzyme activity; action = inhibitor; quantity = IC50; value = 1360 nM
